Results of several laboratories.
Each line is one published result; not all experiments were run side by side. ± gives the spread as reported. ≈ marks a conversion by molar mass, not a printed value.
Genome polyprotein NS2B-NS3 protease: Genome polyprotein, NS2B-NS3 protease (dengue virus type 2, UniProt P29990)

Compound | tested on | assay | system | setting | scale | measurement | value
CN1CCCNC(=O)c2cccc(c2)C(=O)NCCCN(C)CCCNc2cccc3c2C(=O)c2cccc(c2C3=O)NCCC1 | SAS | RNA-Seq, item: TMEM39A mRNA | – | 1 µM, 6 h | baseline: untreated cells | log2 fold change | -1.41
CC(=O)[O-].O.O.O.O.[Co+2].[O-]c1ccc(Br)cc1C=NCCN1CCOCC1 | – | FRAP | – | 160 µM | – | ferric reducing power | 38.6%
C[n+]1ccc(/C=N/NC(=O)C(=O)N/N=C/c2cc[n+](C)c3ccccc23)c2ccccc21 | telomeric G4 DNA hybrid-2 | FRET melting | – | 1 µM, DNA 0.2 µM, added: duplex DNA competitor 10 µM | – | ΔTm | 1.7 ± 0.4 °C
NC(=O)c1ccccc1NC(=O)c1cc(-c2ccccc2)n(-c2ccccc2)n1 | Genome polyprotein NS2B-NS3 protease | reporter gene | HeLa | – | – | EC50 | 28 µM
C[n+]1cc(/C=N/NC(=O)c2cccc(C(=O)N/N=C/c3cc4ccccc4[n+](C)c3)n2)cc2ccccc21 | telomeric G4 DNA hybrid-2 | FRET melting | – | 1 µM, DNA 0.2 µM | – | ΔTm | 21 ± 0.9 °C
Cc1ncsc1-c1ccc(C(C)NC(=O)C2CC(O)CN2C(=O)C(NC(=O)CCCCCCCCCCN2CCCC(Nc3ncc(Cl)c(Nc4ccccc4S(=O)(=O)C(C)C)n3)C2)C(C)(C)C)cc1 (stereo not drawn) | 22Rv1 | RNA-seq, item: STK10 mRNA | – | concentration not given | baseline: DMSO | log2 fold change | -1.37
C=CC(=O)N1[C@@H](c2ccc3c(c2)OCO3)c2[nH]c3ccccc3c2C[C@H]1C(=O)N1CCN(C)CC1 | CCNE1 WT-3xFLAG:CDK2 complex | co-IP TMT proteomics, item: NUP98 | HEK-293T | 20 µM, 6 h | baseline: DMSO | log2 fold change | 0.0426
NC(=O)c1cccc(NC(=O)c2oncc2-c2ccccc2)c1 | Genome polyprotein NS2B-NS3 protease | reporter gene | HeLa | – | – | EC50 | > 50 µM
COC1CN([C@H]2CC[C@H]([C@@]3(C)Oc4c(Cl)cc(C(=O)NCc5c(SC)cc(C)[nH]c5=O)c(C)c4O3)CC2)C1 | – | RNA-seq, item: HOMER3 | human, whole blood | dose not given, 24 h | baseline: pretreatment baseline | log2 fold change | 1.07
N=C(N)NCCC[C@@H]1NC(=O)[C@H](CCCNC(=N)N)NC(=O)[C@@H](CCCNC(=N)N)NC(=O)[C@@H](CCCNC(=N)N)NC(=O)[C@@H](C(c2ccccc2)c2ccccc2)NC(=O)[C@H](Cc2c[nH]c3ccccc23)NC(=O)[C@@H](C(c2ccccc2)c2ccccc2)NC1=O | Blastomyces dermatitidis | – | BD-1 | – | – | MIC | 1 µg/mL (≈ 0.795 µM)
C[n+]1cc(/C=N/NC(=O)c2cc(C(=O)N/N=C/c3cc4ccccc4[n+](C)c3)ncn2)cc2ccccc21 | telomeric G4 DNA hybrid-2 | FRET melting | – | 1 µM, DNA 0.2 µM | – | ΔTm | 4.2 ± 0.6 °C
C=CC(=O)Nc1cccc(Cn2ncc3cnc(Nc4cnn(CCOC)c4)nc32)c1 | human ABL1(Q252H)-phosphorylated | KINOMEscan | – | 100 nM | baseline: control | binding | 8.9%
Nc1ncc(-c2cc(-c3cnn(CC(F)(F)F)c3)ncc2F)nc1C(=O)NC1CNCC(F)C1 (stereo not drawn) | SYK | KINOMEscan | – | 1 µM | baseline: DMSO control | remaining binding | 100%
C[n+]1ccc(/C=N/NC(=O)c2cncc(C(=O)N/N=C/c3cc[n+](C)cc3)n2)cc1 | telomeric G4 DNA hybrid-2 | FRET melting | – | 1 µM, DNA 0.2 µM | – | ΔTm | 5.6 ± 0.1 °C
CNS(=O)(=O)Nc1nccc(Cc2c(C)c3ccc(Oc4ncccc4F)cc3oc2=O)c1F | HCC1937 | cell viability | – | 7 days | – | IC50 | > 1 µM

For quick reference, copied from above:
Compound | tested on | assay | system | setting | scale | measurement | value
CC(=O)[O-].O.O.O.O.[Co+2].[O-]c1ccc(Br)cc1C=NCCN1CCOCC1 | – | FRAP | – | 160 µM | – | ferric reducing power | 38.6%
